{"data": "Published values collected from several papers", "note": "Values joined by “and” are separate records of one study, mostly repeats; a detail may differ. Numbers after ± are the reported error."}
{"Compound": "Cc1nn(-c2nc3c(F)cc(F)cc3s2)c(O)c1C(c1ccc(C(F)(F)F)cc1)c1c(C)nn(-c2nc3c(F)cc(F)cc3s2)c1O", "system": "ICR mouse", "setting": "intraperitoneal, 10 mg/kg, 8.00 h", "quantity": "plasma concentration", "result": "1130 ng/mL and 963 ng/mL"}
{"Compound": "CC[C@H](C)[C@@H]1NC(=O)[C@H](Cc2ccc(O)cc2)NC(=O)CCCSC[C@@H](C(=O)N(CC(=O)N[C@@H](CC(C)C)C(=O)NCC(N)=O)Cc2ccc(F)cc2)NC(=O)[C@H](CC(N)=O)NC(=O)[C@H](CCC(N)=O)NC1=O", "system": "human", "setting": "intranasal, 15 µg single dose", "quantity": "severe adverse events", "result": "0%"}
{"Compound": "Cc1ncsc1-c1ccc(CNC(=O)[C@@H]2C[C@@H](O)CN2C(=O)[C@@H](NC(=O)COCC(C)(COCCOCCOCCNC(=O)C[C@@H]2N=C(c3ccc(Cl)cc3)c3c(sc(C)c3C)-n3c(C)nnc32)COCCOCCOCCNC(=O)C[C@@H]2N=C(c3ccc(Cl)cc3)c3c(sc(C)c3C)-n3c(C)nnc32)C(C)(C)C)cc1", "system": "male C57BL/6 mouse, plasma", "setting": "subcutaneous, 5 mg/kg, 2 h, single dose", "quantity": "concentration", "result": "3550 ng/mL"}
{"Compound": "O=C(Nc1cnccc1-c1ccc([18F])nc1)c1ccnc(NC(=O)C2CC2)c1", "test": "PET imaging", "system": "FVB/NJ mice, both sexes, brain", "setting": "intravenous, 30 min post-injection, P-gp inhibited, added: tariquidar 15 mg/kg iv, 2 h before", "quantity": "SUV", "result": 0.153}
{"Compound": "CC(C)c1cnc(-c2cc(Cl)ccc2F)cc1Nc1ccncc1C(=O)NC(CO)CO", "system": "female C57BL/6 mice, plasma", "setting": "oral, 100 mg/kg twice daily, day 1, MC-38 tumour-bearing, tau 8 h", "quantity": "unbound AUC(0-tau)", "result": "1.37 µM·h"}
{"Compound": "CC(C)(O)c1ncc([S@](N)(=O)=NC(=O)Nc2c3c(cc4c2CCC4)CCC3)s1", "test": "measured: Gastrointestinal disorders", "system": "healthy human volunteers", "setting": "oral, 200 mg once daily, 14 days, spray-dried dispersion", "quantity": "subjects with adverse events", "result": "29%"}
{"Compound": "COc1cccc(OC)c1-c1cc(C(=O)NC2(C(=O)O)C3CC4CC(C3)CC2C4)nn1-c1ccc(C(=O)N(C)CCOCCN(C)C(=O)[C@H](CCCCNC(=O)[C@H](CC(C)C)NC(=O)C2OC2C(=O)O)NC(=O)CN2CCN(CC(=O)[O-])CCN(CC(=O)[O-])CCN(CC(=O)[O-])CC2)cc1C(C)C.[177Lu+3] (mixture of isomers)", "system": "mouse, HT-29 xenograft", "setting": "4 h post injection, biodistribution", "scale": "reference: tumour over muscle uptake", "quantity": "tumour-to-muscle ratio", "result": 21}
{"Compound": "CN(C(=O)C(C)(C)c1cc(C(F)(F)F)cc(C(F)(F)F)c1)c1cnc(N2C[C@H]3COC(O)CN3C[C@H]2CO)cc1-c1ccc(F)cc1CO (stereo partly drawn)", "system": "pooled human liver microsomes", "setting": "pH 7.4, substrate depletion", "quantity": "Km", "result": "1.19 µM"}
{"Compound": "CN(Cc1ccccc1)C(=O)CN1CCN(CC(=O)[O-])CCN(Cc2cccc(C(=O)[O-])n2)CC1.[44Sc+3]", "system": "mouse, liver", "setting": "intravenous, 1 h", "quantity": "tracer uptake", "result": "2 %ID/g"}
{"Compound": "Cc1ccc(OCC(=O)N(Cc2cccs2)c2ccn[nH]2)cc1", "system": "dog plasma", "setting": "750 ng/mL, 2 h, 37 °C, unit not given", "scale": "reference: time zero", "quantity": "remaining compound", "result": 100}
{"Compound": "C=CC(=O)Nc1cc(Nc2nccc(-c3cn(C)c4ccccc34)n2)c(OC)cc1N(C)CCNC", "test": "storage stability", "system": "human plasma", "setting": "72 h, on ice, medium QC level", "quantity": "recovery", "result": "74.4%"}
{"Compound": "N#C[C@@H]1CC(F)(F)CN1C(=O)CNC(=O)c1ccnc2ccc(OCCCN3CCN(C(=O)CCc4ccc(O)c(CN5CCN6CC(=O)[O][Al-]([18F])([O]C(=O)C5)[O]c5ccc(CCC(=O)N7CCN(CCCOc8ccc9nccc(C(=O)NCC(=O)N%10CC(F)(F)C[C@H]%10C#N)c9c8)CC7)cc5C6)c4)CC3)cc12 (stereo partly drawn)", "test": "radio-TLC", "system": "CD-1 mice, plasma", "setting": "intravenous, 10 min post-injection", "quantity": "radiochemical purity", "result": "95.5 ± 2.4%"}
{"Compound": "COc1cccc(OC)c1-c1cc(C(=O)NC2(C(=O)O)C3CC4CC(C3)CC2C4)nn1-c1ccc(C(=O)NCCNC(=O)[C@H](CCCCNC(=O)[C@H](CC(C)C)NC(=O)C2OC2C(=O)O)NC(=O)CN2CCN(CC(=O)[O-])CCN(CC(=O)[O-])CCN(CC(=O)[O-])CC2)cc1C(C)C.[177Lu+3] (mixture of isomers)", "system": "mouse, HT-29 xenograft, HT-29 tumour", "setting": "24 h post injection", "quantity": "tissue uptake", "result": "6.3 %ID/g"}
{"Compound": "COc1ccc(F)cc1C(=O)NCc1ccc(-c2nn([C@@H](C)C(F)(F)F)c(N)c2C(N)=O)cc1", "system": "human", "setting": "intravenous, 22 µg, renal clearance over total clearance", "quantity": "fraction excreted in urine", "result": 0.071}
{"Compound": "CN([O-])C(=O)CN1CCN(CC(=O)N(C)[O-])CCN(CC(=O)N(C)[O-])CC1.[89Zr+4]", "test": "radio-TLC", "system": "human serum", "setting": "7 days, run 3", "quantity": "intact complex", "result": "90.8%"}
{"Compound": "CCCC[C@H](OC(C)=O)c1ccccc1C(=O)O", "system": "beagle dog, both sexes, whole blood", "setting": "intravenous, 1.5 mg/kg, single dose", "quantity": "MRT(0-last)", "result": "1.8 ± 0.2 h"}
{"Compound": "CN(Cc1ccccc1)C(=O)CN1CCN(CC(=O)N(C)Cc2ccccc2)CCN(Cc2cccc(C(=O)[O-])n2)CC1.[44Sc+3]", "system": "mouse, stomach", "setting": "intravenous, 1 h", "quantity": "tracer uptake", "result": "1.09 %ID/g"}
{"Compound": "CCCCN1C(=O)c2cccc3c(NCCCCN4CCOCC4)ccc(c23)C1=O", "system": "acetonitrile", "quantity": "fluorescence lifetime", "result": "10 ns"}
{"Compound": "O=C([O-])CN1CCN(CC(=O)[O-])CCN(Cc2cccc(C(=O)[O-])n2)CC1.[177Lu+3]", "system": "mouse, brain", "setting": "intravenous, 1 h", "quantity": "tracer uptake", "result": "0.04 %ID/g"}
{"Compound": "CCn1nc(Cl)c2c1-c1cnc(N)c(c1)O[C@H](C)c1cc(F)ccc1-c1nn(C)cc1C2", "system": "Balb/c nude mouse, female, plasma", "setting": "0.5 mg/kg twice daily for 5 days, 12 h", "quantity": "free plasma concentration", "result": "3.48 nM"}
{"Compound": "CCC1CNC(CC)CN(C(C(=O)[O-])c2ccc(C(=O)[O-])cc2)C(CC)CN(CC(=O)[O-])C(CC)CN1.[Mn+2] (stereo not drawn)", "test": "ICP-MS", "system": "BALB/c mice, liver", "setting": "intravenous, 0.05 mmol/kg, 5 min", "scale": "reference: injected dose", "quantity": "Mn uptake", "result": "8.55 ± 1.4%"}
{"Compound": "C[C@]12C[C@H](c3ccc(S(C)(=O)=O)cc3)C3=C4CCC(=O)C=C4CC[C@H]3[C@@H]1CC[C@@]2(O)C(F)(F)C(F)(F)F", "test": "measured: compound (parent)", "system": "healthy human volunteers, pooled plasma", "setting": "oral, 5 mg daily, day 28, 0 h", "quantity": "plasma concentration", "result": "11.7 ng/mL"}
{"Compound": "COc1ccc2c(c1)C(C)(C)C(/C=C/C1=C(Oc3ccc(C(=O)NCCCCOc4cc(CN(Cc5ccccn5)Cc5ccccn5)cc(CN(Cc5ccccn5)Cc5ccccn5)c4)cc3)C(=C/C=C3/N(CCCCS(=O)(=O)[O-])c4ccc(OC)cc4C3(C)C)CCC1)=[N+]2CCCCS(=O)(=O)[O-].O=[N+]([O-])[O-].O=[N+]([O-])[O-].[99Tc+].[C-]#[O+].[C-]#[O+].[C-]#[O+].[Zn+2]", "system": "mouse, spleen", "setting": "12 h", "quantity": "tracer uptake", "result": "9.23 %ID/g"}
{"Compound": "CC(C)(O)c1ccc(N2Cc3c(ccnc3-c3ccc(F)cc3OCC(F)(F)F)C2=O)cc1", "system": "male C57BL/6 mouse, plasma", "setting": "oral, 100 mg/kg, 6 h", "quantity": "concentration", "result": "11300 ng/mL"}
{"Compound": "CN(Cc1ccccc1)C(=O)CN1CCN(CC(=O)[O-])CCN(CC(=O)[O-])CC1.[18F-].[Sc+3]", "system": "mouse, muscle", "setting": "intravenous, 1 h", "quantity": "tracer uptake", "result": "0.11 %ID/g"}
{"Compound": "COc1ccc2c(c1)CCn1c[n+]3c(c1-2)-c1ccc(OC)cc1CC3", "system": "female NSG mice, blood", "setting": "6 mg/kg, day 7, 5 days per week", "quantity": "red cell distribution width", "result": "15.2 ± 0.57%"}
{"Compound": "O=C1CCC(N2Cc3cc(C(=O)O)c(F)cc3C2=O)C(=O)N1 (stereo not drawn)", "system": "male CD-1 mouse, plasma", "setting": "intravenous, 1 mg/kg, 15 min", "quantity": "concentration", "result": "379 ng/mL"}
{"Compound": "[2H]C([2H])(N)C([2H])([2H])NC(=O)c1cc(C2CC2)nc2c1cnn2C(C)C", "system": "female BALB/c mouse, plasma", "setting": "intraperitoneal, 50 mg/kg, 15 min", "quantity": "concentration", "result": "2250 ng/mL"}
{"Compound": "C=C(NC(=O)c1csc(-c2nc3c(cc2O)-c2nc(cs2)C(=O)NC(C(C)O)C(=O)NC(=C(C)OC)c2nc(cs2)C(=O)NC2c4nc(cs4)C(=O)NC(COC(=O)c4c5c6c(cccc6n4O)COC(=O)C(OC4CC(C)(O)C(N(C)C)C(C)O4)C2OC5)c2nc-3cs2)n1)C(N)=O (stereo not drawn)", "system": "ICR mice, Streptococcus pneumoniae ATCC 49169 infected, immunocompromised, blood", "setting": "intravenous, 8 mg/kg/day twice daily", "quantity": "Cmax", "result": "318 ng/mL"}
{"Compound": "O=C(Nc1cnccc1-c1ccc([18F])cc1)c1ccnc(NC(=O)C2CC2)c1", "test": "ex vivo gamma counting", "system": "GSK-3β transgenic mice, late-stage, large intestine", "setting": "intravenous, 120 min", "quantity": "mean SUV", "result": 0.67}
{"Compound": "COc1ccc(Nc2nc(Nc3ccc(OCCOCCOCC[18F])cc3)ncc2Br)cc1", "system": "ICR mice, S180 tumour", "setting": "intravenous, 370 kBq, 15 min", "scale": "reference: tumour over blood", "quantity": "uptake ratio", "result": 0.67}
{"Compound": "CN(Cc1ccccc1)C(=O)CN1CCN(CC(=O)[O-])CCN(CC(=O)N(C)Cc2ccccc2)CC1.[44Sc+3]", "system": "mouse, kidney", "setting": "intravenous, 1 h", "quantity": "tracer uptake", "result": "6.14 %ID/g"}
{"Compound": "CC(C)OCCOCc1ccc(OCC(O)CN(N=O)C(C)C)cc1 (stereo not drawn)", "test": "duplex sequencing", "system": "NMRI mouse, bone marrow", "setting": "concentration not given", "quantity": "T>G mutation frequency", "result": "increased"}
{"Compound": "C=CC(=O)N1CC2C(=O)N(CCN(C)C)c3c(c4cc(Cl)c(-c5c(O)cccc5F)nc4n(-c4c(C)ccnc4C(C)C)c3=O)N2CC1C (stereo not drawn)", "system": "BALB/c nude mouse, plasma", "setting": "oral, 100 mg/kg, 8 h", "quantity": "unbound plasma concentration", "result": "1280 nM"}
{"Compound": "Cc1cc(Cl)cc(S(C)=NC#N)c1NC(=O)c1cc(Br)nn1-c1ncccc1Cl (stereo not drawn)", "test": "potentiometric", "quantity": "logP", "result": 3.37}
{"Compound": "O=C([O-])CN1CCN(CC(=O)[O-])CCN(CC(=O)[O-])CC1.[44Sc+3]", "system": "mouse, blood", "setting": "intravenous, 1 h", "quantity": "tracer uptake", "result": "0.28 %ID/g"}
{"Compound": "N#C[C@@H]1CCCN1C(=O)CNC(=O)c1ccnc2ccc(OCCCN3CCN(C(=O)CCc4ccc5c(c4)CN4CCN(Cc6cc(CCC(=O)O)ccc6O)CC(=O)[O][Al-]([18F])([O]C(=O)C4)[O]5)CC3)cc12 (stereo partly drawn)", "test": "radio-TLC", "system": "CD-1 mice, plasma", "setting": "intravenous, 10 min post-injection", "quantity": "radiochemical purity", "result": "94.9 ± 1.1%"}
{"Compound": "CCC(CC)CNC(=N)NC(=N)NCCCCCCNC(=N)NC(=N)NCC(CC)CC", "test": "metabolic stability", "system": "rat, liver microsomes", "setting": "2 µM", "quantity": "scaled CLint", "result": "67.8 mL/min/kg"}
{"Compound": "C/C(N)=N/C(=N\\S(=O)(=O)c1ccc(C(F)(F)F)cc1)N1C[C@H](c2ccccc2)C(c2ccc(Cl)cc2)=N1", "system": "C57BL/6 mouse, adipose tissue", "setting": "intravenous, 10 mg/kg", "quantity": "t1/2", "result": "3.7 h"}
{"note": "For quick reference, copied from above:"}
{"Compound": "Cc1cc(Cl)cc(S(C)=NC#N)c1NC(=O)c1cc(Br)nn1-c1ncccc1Cl (stereo not drawn)", "test": "potentiometric", "quantity": "logP", "result": 3.37}
{"Compound": "CN(Cc1ccccc1)C(=O)CN1CCN(CC(=O)[O-])CCN(Cc2cccc(C(=O)[O-])n2)CC1.[44Sc+3]", "system": "mouse, liver", "setting": "intravenous, 1 h", "quantity": "tracer uptake", "result": "2 %ID/g"}
{"Compound": "CN(C(=O)C(C)(C)c1cc(C(F)(F)F)cc(C(F)(F)F)c1)c1cnc(N2C[C@H]3COC(O)CN3C[C@H]2CO)cc1-c1ccc(F)cc1CO (stereo partly drawn)", "system": "pooled human liver microsomes", "setting": "pH 7.4, substrate depletion", "quantity": "Km", "result": "1.19 µM"}
{"Compound": "CC(C)OCCOCc1ccc(OCC(O)CN(N=O)C(C)C)cc1 (stereo not drawn)", "test": "duplex sequencing", "system": "NMRI mouse, bone marrow", "setting": "concentration not given", "quantity": "T>G mutation frequency", "result": "increased"}
